Measurements of several laboratories.
Protocols differ between the studies behind these lines.

Compound = Cc1cc(C(=O)N[C@@H](CC(=O)NC(C)(C)C)C(=O)NCCNC(=O)c2cccc(-c3cc[nH]n3)c2)no1; species = mouse; matrix = plasma; route = intravenous; dose = 0.1 mg/kg; time = 5 min; concentration = 49.9 ng/mL
Compound = C=CC(=O)N1CC2C(=O)N(CCN(C)C)c3c(c4cc(Cl)c(-c5c(O)cccc5F)nc4n(-c4c(C)ccnc4C(C)C)c3=O)N2CC1C (stereo not drawn); species = nude mouse; matrix = CSF; route = oral; dose = 100 mg/kg; time = 1 h; concentration = 230 nM
Compound = O=C1CCC(N2Cc3cc(C(=O)O)c(F)cc3C2=O)C(=O)N1 (stereo not drawn); species = male CD-1 mouse; matrix = plasma; route = intravenous; dose = 1 mg/kg; time = 2 h; concentration = 18.4 ng/mL
Compound = Cc1c2ccnc(C(=O)N[C@H](C)CN(C)C)c2cc2c3cc(OCCCN4CCN(C)CC4)ccc3n(C)c12; species = male C57BL/6 mouse; matrix = brain; route = intraperitoneal; dose = 10 mg/kg; time = 2 h; setting = single dose; concentration = 240 nM
Compound = CC(C)n1ncc2c(C(=O)NC[C@@H](C)N)cc(C3CC3)nc21; species = female BALB/c mouse; matrix = plasma; route = intraperitoneal; dose = 30 mg/kg; time = 15 min; concentration = 1230 ng/mL
Compound = Cc1ncsc1-c1ccc(CNC(=O)[C@@H]2C[C@@H](O)CN2C(=O)[C@@H](NC(=O)COCC(C)(COCCOCCOCCNC(=O)C[C@@H]2N=C(c3ccc(Cl)cc3)c3c(sc(C)c3C)-n3c(C)nnc32)COCCOCCOCCNC(=O)C[C@@H]2N=C(c3ccc(Cl)cc3)c3c(sc(C)c3C)-n3c(C)nnc32)C(C)(C)C)cc1; species = male C57BL/6 mouse; matrix = plasma; route = subcutaneous; dose = 5 mg/kg; time = 1 h; setting = single dose; concentration = 2260 ng/mL
Compound = CC[C@H](C)/C=C/C=C/C=C/C(O)=C/C(=O)C(F)(F)Cl; species = female C57BL/6 mouse; matrix = plasma; route = oral; dose = 25 mg/kg; time = 4 h; concentration = > 1000 nM
Compound = COc1cccc(C2CC(c3ccccc3Cl)Nc3nc(N)nn32)c1 (stereo not drawn); species = male CD-1 mouse; matrix = brain; route = intraperitoneal; dose = 20 mg/kg; time = 30 min; setting = single dose; concentration = 17000 nM
Compound = [2H]C([2H])(N)C([2H])([2H])NC(=O)c1cc(C2CC2)nc2c1cnn2C(C)C; species = female BALB/c mouse; matrix = plasma; route = intraperitoneal; dose = 50 mg/kg; time = 2 h; concentration = 1600 ng/mL
Compound = C=CC(=O)N1CCCC(n2c(=O)c3ncccc3n(Cc3ccc(Oc4ccccc4)cc3)c2=O)C1 (stereo not drawn); species = male BALB/c mouse; matrix = plasma; route = oral; dose = 200 mg/kg; time = 4 h; concentration = 5590 ng/mL
Compound = CC(C)n1ncc2c(C(=O)NCCN(C)C)cc(C3CC3)nc21; species = female BALB/c mouse; matrix = plasma; route = intraperitoneal; dose = 50 mg/kg; time = 5 h; concentration = 20.9 ng/mL
Compound = CC(C)(O)c1ccc(N2Cc3c(ccnc3-c3ccc(F)cc3OCC(F)(F)F)C2=O)cc1; species = male C57BL/6 mouse; matrix = brain; route = oral; dose = 10 mg/kg; time = 6 h; concentration = 773 ng/g
